# Experimental data from different studies.
# Each line is one published result; not all experiments were run side by side. Numbers after ± are the reported error.
Molecule,test,system,conditions,how to read,measurement,value
CS/C(S)=N/CCCC[S+](C)[O-] (racemic),"RT-PCR, measured: Alad","rat, colon","oral gavage, 200 mg/kg, 96 h, dosed for four days",relative to: vehicle,mRNA fold change,3.45
SIYNFEKL,"flow cytometry, measured: CD44hi CD8+ T cells","peptide, OT-I CD8+ T cells, mouse","dose not given, primed 5 days, restimulated 100 ng/mL OVA257, added: no TGF-β1",,IL-2 only cells,19.5%
COc1ccc(-c2nc3ccccc3s2)cc1OCc1nnc(-c2ccc(O)cc2)o1,hind limb tonic extension,"albino mouse, MES-induced seizure","ip, 0.5 h",,minimal effective dose,30 mg/kg
Cc1cc(C)c(/C=C2\C(=O)Nc3ccccc32)[nH]1,,"human, pediatric refractory CNS tumours","dose not given, stratum II",relative to: patients,stable disease,17%
COc1ccc(-c2nc3ccccc3s2)cc1OCc1nnc(-c2cc([N+](=O)[O-])cc([N+](=O)[O-])c2O)o1,hind limb tonic extension,"albino mouse, MES-induced seizure","ip, 4.0 h",,minimal effective dose,30 mg/kg
C[C@H]1C[C@H]2CSC(N)=N[C@@]2(c2nc(NC(=O)c3ccc(OC(F)F)cn3)cs2)CO1,measured: CSF Aβx-38,healthy adults,"275 mg once daily, 14 days, day 15",relative to: placebo-adjusted baseline,change from baseline,-88.7%
Cc1c2ccccc2c(C)c2c1ccc1ccccc12,inducer,"female rat, liver","oral, 10 mg, 24 h, sesame oil vehicle",,menadione reductase activity,50.7 enzyme units
O=C(/C=C/c1cc(O)ccc1O)OCCc1ccccc1,DPPH,ethanol,"20 µM, 30 min, room temperature",,radical scavenging,67%
Cc1cccc2cc3c(cc12)c(C)cc1ccccc13,adrenal apoplexy prevention,rat,"oral, added: 7,12-DMBA 5 mg i.v.",,non-protective dose,0.5 mg
NC(=O)[C@H](CCC(=O)O)NC(=O)[C@H](CCC(=O)O)NC(=O)[C@H](Cc1cc(-c2ccc(-c3cccc(Cl)c3)cc2)no1)CP(=O)(O)c1ccc(Br)cc1,,"plaque vascular smooth muscle cells, high-fat-fed apoE-knockout mice, atherosclerotic plaque",dose not given,,apoptotic cells,0.7 ± 0.3%
O=C1O[C@H]([C@@H](O)CO)C(O)=C1O,"superoxide scavenging, pyrogallol",,,,IC50,40 ± 1.2 µM
COc1ccc(-c2nc3ccccc3s2)cc1OCc1nnc(-c2ccccc2)o1,hind limb tonic extension,"albino mouse, MES-induced seizure","ip, 4.0 h",,minimal effective dose,100 mg/kg
COc1ccc2nc([S@@+]([O-])Cc3ncc(C)c(OC)c3C)[nH]c2c1,,healthy human,"oral, single dose, 40 mg, 12 to 24 h, crossover vs dexlansoprazole MR",,mean intragastric pH,3.5
COc1ccc(-c2nc3ccccc3s2)cc1OCc1nnc(-c2c(OC)cccc2OC)o1,hind limb tonic extension,"albino mouse, MES-induced seizure","ip, 4.0 h",,minimal effective dose,100 mg/kg
Fc1ccc(Nc2n[nH]c3cccnc23)cc1Cl,,"rat, haloperidol-induced catalepsy",30 mg/kg,,time to reversal of catalepsy,≥ 6 h
O=C(NC[C@H]1CN(c2ccc(N3CCOCC3=O)cc2)C(=O)O1)c1ccc(Cl)s1,,"human, mild renal impairment, plasma","oral, 10 mg, added: erythromycin at steady state","relative to: same subjects, compound alone",prothrombin time AUC(0-48h) increase,~19%
COc1cccc2c1C(=O)c1c(O)c3c(c(O)c1C2=O)C[C@@](O)(C(=O)CO)C[C@@H]3O[C@H]1C[C@H](N)[C@H](O)[C@H](C)O1,,mice bearing T47D xenografts,"5 mg/kg once weekly, 17 days after inoculation, treated 2 weeks",,tumour volume,63.3 ± 16.9 mm3
O=C(NC[C@H]1CN(c2ccc(N3CCOCC3=O)cc2)C(=O)O1)c1ccc(Cl)s1,thrombin generation,human platelet-poor plasma,added: thrombomodulin,relative to: without over with thrombomodulin,IC50 ratio,12 fold
COc1ccc(-c2nc3ccccc3s2)cc1OCc1nnc(-c2ccc(N(C)C)cc2)o1,seizure protection,"albino mouse, scPTZ-induced seizure","ip, 0.5 h",,minimal effective dose,300 mg/kg
CC(C)[C@H](NS(=O)(=O)c1ccc(-c2ccc(Br)cc2)cc1)C(=O)O,measured: troponin I in coronary effluent,"rat, isolated perfused stunned heart","dose not given, 20-25 min ischaemia, 5 min reperfusion",,troponin I release,42.2 ± 11.1 ng/mL

# Repeated from above:
Molecule,test,system,conditions,how to read,measurement,value
COc1ccc(-c2nc3ccccc3s2)cc1OCc1nnc(-c2ccc(N(C)C)cc2)o1,seizure protection,"albino mouse, scPTZ-induced seizure","ip, 0.5 h",,minimal effective dose,300 mg/kg
Cc1cccc2cc3c(cc12)c(C)cc1ccccc13,adrenal apoplexy prevention,rat,"oral, added: 7,12-DMBA 5 mg i.v.",,non-protective dose,0.5 mg
COc1ccc(-c2nc3ccccc3s2)cc1OCc1nnc(-c2ccc(O)cc2)o1,hind limb tonic extension,"albino mouse, MES-induced seizure","ip, 0.5 h",,minimal effective dose,30 mg/kg
